Assay results from different studies.
Values joined by “and” are separate records of one study, mostly repeats; a detail may differ.
MAP2K6: Dual specificity mitogen-activated protein kinase kinase 6 (MAP2K6, Homo sapiens, UniProt P52564)

`CNC1C[S+]2CC[S+]3CC[S+](C1)[Ru-4]321([N]=C=S)[n]2c3ccc(OC)cc3c3c4c(c5cc(F)c[n+]1c5c32)C(=O)NC4=O` (centres unmarked) gave a remaining binding of 100% (MAP2K6; KinomeScan; 0.1 µM; reference: untreated).
The inhibition of `CN1CCN(Cc2ccc(-c3ccc(CO[C@H]4CCC[C@@H]4NC(=O)c4cc(-c5cnn(C)c5)cnc4N)cc3)cc2)CC1` is reported as 9% and 3% (MAP2K6; enzyme activity, inhibitor; 0.1 µM).
`CN1CC[C@@H](COc2cnc(C#N)cc2-c2ccn3nc(NC(=O)C4CC4)cc3c2)C1` gave an inhibition of 33% (MAP2K6; enzyme activity, inhibitor; 1 µM).
`O=C(Cc1ccc(OCc2ccccc2)cc1)NC1(C(=O)O)CCN(C(=O)c2ccc(-c3cccc(Cl)c3)cc2)CC1`: “activity vs control” 110% (MAP2K6; enzyme activity, inhibitor; 10 µM).
For `COc1c(Cl)cccc1Nc1c(-c2ccncc2C#C[C@@]2(C)CCCN2C(=O)/C=C/CN(C)C)[nH]c2c1C(=O)NCC2`, the remaining binding was 70% (MAP2K6; binding, competition with immobilised ligand; 3 µM).
For `Cc1cnc2nc1Nc1cccc(c1)COC/C=C/COCc1cc(ccc1OCCN1CCOCC1)N2`, the remaining binding was 100% (MAP2K6; binding, competition with immobilised ligand; 0.1 µM).
`COCC12C(=O)NC3C4(C(OC)CC1O)C1CC5(O)C(OC)C(O)C(OC(C)=O)(C1C5OC(=O)c1ccccc1)C3(O)C(OC)C24` (centres unmarked) gave a remaining activity of 139% and 102% (MAP2K6 (Homo sapiens, UniProt P52564, S207D/T211D); kinase activity, inhibitor, ProQinase kinase profiling; 25 µM; reference: control).
With `NC(=O)C[C@H]1CCc2sc3ncnc(O[C@H]4CC[C@H](N5CCOCC5)CC4)c3c21` the inhibition was 7% (MAP2K6; enzyme activity, inhibitor; 10 µM).
`CNC(=O)C1CCN(c2cc(C)c(F)cc2NC(=O)c2ccc(-c3cc(O)ccc3C)c(C)c2)CC1` gave a remaining binding of 100% (MAP2K6; binding, competition with immobilised ligand; 1 µM).
`CCN1CCN(Cc2ccc(C(=O)Nc3ccc(C)c(NCc4cnc5[nH]ccc5c4OC)c3)cc2C(F)(F)F)CC1` has a remaining binding of 100% (MAP2K6; binding, competition with immobilised ligand; 1 µM).
`Cc1ccc(-c2c(/C=C(\C#N)C(=O)NC(C)C)n(CCCO)c3ncnc(N)c23)cc1` has a remaining binding of 100% (MAP2K6; cell-free assay, competition with immobilised ligand; 1 µM).
`Nc1ncc2c(n1)-c1c([nH]c3ccc(C4=CCOCC4)cc13)CCC2` has a remaining binding of 100% (MAP2K6; binding, competition with immobilised ligand; 1 µM).
`COc1c(OCCCN2CCOCC2)ccc2c1N=C(NC(=O)c1cnc(N)nc1)N1CCN=C21` gave a remaining activity of 110% (MAP2K6; kinase activity, inhibitor; 1 µM; reference: untreated control).
`NC(=O)[C@@H](O)C[C@H]1CCc2sc3ncnc(O[C@H]4CC[C@H](N5CCOCC5)CC4)c3c21` has an inhibition of 11% (MAP2K6; enzyme activity, inhibitor; 10 µM).
The remaining binding of `C=CC(=O)N1CCCC(n2c(=O)c3ncccc3n(Cc3ccc(Oc4ccccc4)cc3)c2=O)C1` (centres unmarked) is reported as 100% (MAP2K6; cell-free assay, competition with immobilised ligand; 1 µM).
With `COc1ccc(NC(=O)Nc2ccc3c(c2)C(=O)N(C(C)CO)CC(C)C(CN(C)Cc2ccc4c(c2)OCO4)O3)cc1` (centres unmarked) the remaining activity was 98% (MAP2K6; kinase activity; 0.03 µM; reference: control).
With `O=C=[N][Ru-4]123([n]4c5ccc(O)cc5c5c6c(c7cc(F)c[n+]1c7c54)C(=O)NC6=O)[S+]1CC[S+]2CC[S+]3CC1` (centres unmarked) the remaining activity was 115% (MAP2K6; enzyme activity; 100 nM, human enzyme, added: 10 µM ATP; reference: untreated).
`COc1cc(Nc2nc(C)cc(-c3cnn4nc(OC)ccc34)n2)cc(C(F)(F)F)c1` gave a remaining activity of 100% (MAP2K6; inhibitor; 1 µM, MEK6; reference: control).
The remaining activity of `Nc1ncc(-c2cc(-c3cnn(CC(F)(F)F)c3)ncc2F)nc1C(=O)NC1CNCC(F)C1` (centres unmarked) is reported as 92% (MAP2K6; enzyme activity; 1 µM; reference: DMSO control).
The remaining binding of `C=CC(=O)N1CCc2ccc(-n3c(=O)ccc4cnc5ccc(-c6cnn(C)c6)cc5c43)cc21` is reported as 92% (MAP2K6; KINOMEscan; 1 µM; reference: DMSO control).
`CC(C)=CC1OC(C)(C)C2C=C3C(=O)C(Cl)=CC(O)C3C3C(O)C4OC4C(=O)C132` (centres unmarked) gave a remaining binding of 92% (MAP2K6; cell-free assay, competition with immobilised ligand; 10 µM).
Under “activity vs control”, `CNC(=O)C[C@H](Cc1ccc(C#N)cc1)NC(=O)c1cc(-c2ccc(CN[C@H](C)c3ccc(C)cc3)o2)ccc1Cl` is recorded as 92% (MAP2K6; enzyme activity, inhibitor; 1 µM).
`COc1cc(Nc2nccc(-c3cnn4nc(OC)ccc34)n2)cc(C(F)(F)F)c1` has a remaining binding of 100% (MAP2K6; binding, competition with immobilised ligand; 1 µM).

Repeated from above:
For `COc1c(Cl)cccc1Nc1c(-c2ccncc2C#C[C@@]2(C)CCCN2C(=O)/C=C/CN(C)C)[nH]c2c1C(=O)NCC2`, the remaining binding was 70% (MAP2K6; binding, competition with immobilised ligand; 3 µM).
For `Cc1cnc2nc1Nc1cccc(c1)COC/C=C/COCc1cc(ccc1OCCN1CCOCC1)N2`, the remaining binding was 100% (MAP2K6; binding, competition with immobilised ligand; 0.1 µM).
